Measured values pooled from the literature.
Every numbered part comes from another study and shows a few of its results, in no order. Positions count from the first letter of the parent shown.

Set 1
Target: Interferon regulatory factor 7, full length, phosphomimetic (IRF7, Homo sapiens, UniProt Q92985, residues 1-503, S471D/S472D/S475D/S476D/S477D/S483D/S484D/S487D)
Sequence of UniProt Q92985 (whole entry, unmodified, looked up): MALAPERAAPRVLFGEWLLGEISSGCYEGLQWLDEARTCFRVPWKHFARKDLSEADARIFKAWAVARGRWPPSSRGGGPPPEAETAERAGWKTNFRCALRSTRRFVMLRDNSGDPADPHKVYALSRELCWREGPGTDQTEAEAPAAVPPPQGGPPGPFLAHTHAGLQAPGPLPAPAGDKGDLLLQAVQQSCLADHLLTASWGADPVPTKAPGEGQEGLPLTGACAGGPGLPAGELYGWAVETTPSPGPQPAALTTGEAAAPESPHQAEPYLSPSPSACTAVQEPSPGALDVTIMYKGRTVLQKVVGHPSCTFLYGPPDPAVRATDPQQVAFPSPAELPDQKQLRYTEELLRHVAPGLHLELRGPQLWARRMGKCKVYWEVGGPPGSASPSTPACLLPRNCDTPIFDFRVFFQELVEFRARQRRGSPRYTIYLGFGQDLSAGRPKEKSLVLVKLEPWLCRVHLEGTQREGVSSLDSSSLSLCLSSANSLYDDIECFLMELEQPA
Technique: protein-binding microarray
Molecule type: double-stranded DNA, one strand shown
Medium: in vitro
Tested at: 2200 nM top
Notes: 60-bp whole probe
Added: salmon DNA 0.4 mg/ml
Baseline: random background probes
Direction: higher = stronger binding
Quantity: fitted relative affinity
All sequences stand within: GCCTAGCAC … GTCTTGATTCGCTTGACGCTGCTG
GGGAATTTAGAAAATGGAAATGTGCTA: -1.09 z-score
TTAGATTTCGGGACTGGATGAGTGCTA: 0.854 z-score
TCATCTCTCTTTCCACTACTGTGCTAG: 2.67 z-score
TTAGGACTGGACTTTCGGTTAGTGCTA: 4.89 z-score
TTAGACATCAGACTGGATTAGTGCTAG: -0.429 z-score
GACGGGTTCGGGACTGGGGACGTGCTA: -0.273 z-score
TTAGGTTTCCTACTGCTATAGTGCTAG: 0.933 z-score
TTAGGTCTCTGACTGGGTTAGTGCTAG: -0.252 z-score
GACGATTTCAGTTCCGAAACGTGCTAG: 1.94 z-score
CCTTATCCCTAATCTCAGCCTGTGCTA: 1.5 z-score
TTAGGTATCCTACTGTTTTAGTGCTAG: 0.665 z-score
TCAGCTCTCCGGGGTCTGACTGTGCTA: -0.206 z-score
TTATGTTTCGGACTGGGTTAGTGCTAG: 3.17 z-score
ATGTATACACACTATAGTGAAGTGCTA: 0.489 z-score
TCACTCTTCTGCTTCCTACTGTGCTAG: 2.6 z-score
TTAGGACTGGGTTTCGGTGAGTGCTAG: 0.661 z-score
TGTGTTTTCATTTTATGACAGTGCTAG: 4.65 z-score
TTAGGTTTCGGTATCCGTTAGTGCTAG: 8.29 z-score
GACGATTCCATTTTCGAGACGTGCTAG: 4.43 z-score
TTAGATCTCGGGACTGGATTAGTGCTA: -0.317 z-score
TCACCAATCTCTCTTCAACTGTGCTAG: 1.35 z-score
CACGTTGCTCAAGGGCTTGAGTGCTAG: 0.737 z-score
CTTTCTTTAACATATTCTCTTGTGCTA: 1.54 z-score
GACGGTCTCCTTCTCTTGACGTGCTAG: 1.26 z-score
GACGGTTTCTGTTCCGGGACGTGCTAG: 4.81 z-score

Set 2
Target: RNA binding protein fox-1 homolog 2, RRM domain, GST-SBP tag (RBFOX2, Homo sapiens, UniProt O43251-10, residues 100-194)
Technique: RNA Bind-n-Seq
Molecule type: RNA
Medium: in vitro
Tested at: 365 nM
Notes: natural RNA segment, single round, ends assumed
Baseline: no-protein control
Direction: higher = stronger binding
Quantity: RBNS enrichment (R)
All sequences stand within: GGGAGUUCUACAGUCCGACGAUC … UGGAAUUCUCGGGUGCCAA
Construct (chain): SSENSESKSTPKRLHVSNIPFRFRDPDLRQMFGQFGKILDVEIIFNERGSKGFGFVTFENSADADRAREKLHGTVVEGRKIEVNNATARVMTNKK
UAAAAGUAGCUGCCCUCUUUGAUCCUUUCUUACUAGGCUUCAUGUGGGAUGGGAGAGGAUGUCCCCAGGAUGGGGACAGAGGAAGCCCUGCUAGGGUCUCCUAGCCCAGU: 0.381
CAGGCCUCACUCCACCCUGAAUGGACUCGAGCCAUGUAUUCAUUCAGUAAACUGACAUUAUUCUCCCGCUUCGUUCAUGUUUAUUUCACUUGCCUUGGUCAGAGGCCAAG: 0.429
AACCAACUAAAAGAGAAGGAGGUCUUCAUGUUGAUAUUUUGCUUGGUUUUAUUUUACUGAUUUUAAAAGGUAUAUAGAAAAAUGUAGGCCUUUAAAAAGAAACAGCAUGU: 1.75
UCAUCACAAAUCAAUACGGUAUACAGAGUUAAAGUGGAAUGAGGUAAGAAGAUACAGCUACAGAAAAUAGUUGCGUGUAUGGGAGAACAGUCAUUGUAAUUGGGUAGUUU: 0.74
UACUGUGUCCUAUUUUAUUCAUGCCUGUGUGUUUUUCUUAAGUAUGAAUUCUAGAUACAGCUACUUAUGGAUUCAUCAAUAUCAUGAGCACUUUUGCUGGUUCCAGUCAA: 0.453
UAACCUUGGCCUACUCUAUUCUUUCCCCCCAUGAACUUAUCAAAGGGAGAACUGGUUGUGUAUUUAAGAGAAAUGAGAGUGCAUUGCAAAGUAGUUUCCCAAGGCAUUUC: 0.429
CUCCCUCUGUCGGCUUUUUGCCAUCUGUGAUAUGCCAUAGGUGUGACAAUCCGAGCAGUGGAGUCAUUCAGCGGGAGCACUGCGCGCUAUCCCCUCACAUUCUCUAUGUA: 0.628
GCCCAUUGCAGCACUGUGCUGGCCAGACUUCAGCUGCCUUGGGAACUGAAGCCCUGCCACUGUUGCUAGUCAGGGGCUUGGUUCUCCCACUUACACUGUUGACAUCUAUU: 1.11
GCUCAGGUGAUGCCGGCCACCAGCAAUGCCUGGCCUGGUAGCUCCGCUUCUGCUUUCACCAAGAGAGUGUUUCUUCACUCAACUCAGGUGGCAUUUGGGGUGACAUCUCA: 0.183
CUCUGAGGGCAUCUGAAUGCAUAUAGUGUGUGUGCAUGAACACAGCACUGGACAGUACACUCUGGUGUACACACUUGCGCACACAUAUACACACACAAUAAUUUUUUAAA: 0.62
UUUGUCUUGGAACCACCAGUCUAGUCCGUCCUGGCACAGAAGAGGAGUCAAGUAAUGGAGGUCCCAGCCCUGGGGGUUUAAGCUCUGCCCCUUCCCCAUGAACCCUGCCC: 0.478
GACUGAUGAGUCAGUCACAGUUCCACUGACUCCCAGUUACUGUUCUGAUUAGUGGUAGUUAUUUGCUGGGAACUGACAAAGUUCAUCUUGGCAAUGAUUAAACCCAGCUU: 0.327

Set 3
Target: Histone acetyltransferase KAT6A, winged helix 2, GST fusion (KAT6A, Homo sapiens, UniProt Q92794, residues 85-181)
Technique: protein binding microarray
Molecule type: double-stranded DNA, one strand shown
Medium: in vitro
Tested at: not given
Notes: 8-mer, flanks averaged, mean of 2 arrays, mostly near background
Baseline: not given
Direction: higher = stronger binding
Quantity: E-score
Construct (chain): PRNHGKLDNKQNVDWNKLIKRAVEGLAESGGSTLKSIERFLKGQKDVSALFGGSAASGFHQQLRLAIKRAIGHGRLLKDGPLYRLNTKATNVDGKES
CACCTCGC: 0.0389
ATATCATC: -0.00581
CCATCAAA: 0.00757
CACAGTAG: -0.0752
CAGCGTCG: 0.083
TGTGGTAA: 0.031
TAGCACTA: -0.0567
CAAGTTGA: -0.138
CAAGTTAA: -0.0247
TGCTGCAA: 0.188
AAGATCGC: 0.0858
AGTTATTA: -0.0692
GATTGGGA: -0.0374
GCTACGCC: 0.0717
GAGTGATA: -0.0767
CGGGCAGA: 0.135
ACTCCGCA: -0.0949
CGTCGGAG: 0.109
CGCTATGA: 0.0315
AAGTGATC: -0.083
GTGTTACA: -0.0825
ATGCCTTG: 0.0823
ACTGACTC: -0.179
ACAGGAGA: -0.0505
AGGATAAT: 0.0562

Set 4
Target: CCNF, cyclin fold, Cln2 fusion (human)
Technique: yeast growth competition, sequencing
Medium: yeast
Notes: strong parent motif
Baseline: not given
Direction: higher = stronger binding
Quantity: normalised enrichment score
Starting sequence: RBL2 docking peptide (human); STTRRRLFVENDS; partner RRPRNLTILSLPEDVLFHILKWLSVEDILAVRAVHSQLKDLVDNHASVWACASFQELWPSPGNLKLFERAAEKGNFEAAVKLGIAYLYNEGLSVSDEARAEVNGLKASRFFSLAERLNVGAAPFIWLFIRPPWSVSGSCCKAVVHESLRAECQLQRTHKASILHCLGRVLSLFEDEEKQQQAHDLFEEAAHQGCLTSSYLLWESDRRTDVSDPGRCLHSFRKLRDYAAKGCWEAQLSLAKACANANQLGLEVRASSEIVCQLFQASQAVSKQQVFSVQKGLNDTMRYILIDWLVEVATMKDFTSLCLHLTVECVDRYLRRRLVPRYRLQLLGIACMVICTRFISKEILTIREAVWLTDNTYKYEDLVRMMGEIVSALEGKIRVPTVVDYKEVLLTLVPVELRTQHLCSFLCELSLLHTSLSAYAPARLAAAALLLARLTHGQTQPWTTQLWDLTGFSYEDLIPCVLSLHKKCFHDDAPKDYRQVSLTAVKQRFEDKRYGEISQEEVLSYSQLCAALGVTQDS
STTRRALFVENDS [R6A]: 7.81
STTRRRLFVENDI [S13I]: 9.03
STTRRRLFVENDN [S13N]: 7.43
DTTRRRLFVENDS [S1D]: 6.59
STTRRRLAVENDS [F8A]: 1.38
SATRRRLFVENDS [T2A]: 7.54
STTRRRLGVENDS [F8G]: 0.606
STTRRRLFVENFS [D12F]: 8.77
STNRRRLFVENDS [T3N]: 1.73
STTRRRLFGENDS [V9G]: 7.34
STTRRRLFVENES [D12E]: 7.95
STTRRRLFMENDS [V9M]: 8.07
STTRRRLFVINDS [E10I]: 7.16
STTRRRLFVEKDS [N11K]: 7.94
STTRRRLFYENDS [V9Y]: 9.85
WTTRRRLFVENDS [S1W]: 8.18
VTTRRRLFVENDS [S1V]: 8.37
SNTRRRLFVENDS [T2N]: 8.62
STTRRRLFVGNDS [E10G]: 7.71
STTRRRLFVENVS [D12V]: 8.36
STTSRRLFVENDS [R4S]: 5.56
STTRRRLFVFNDS [E10F]: 8.8
QTTRRRLFVENDS [S1Q]: 8.1
STTRPRLFVENDS [R5P]: 0.132
STTRRRLFVENDC [S13C]: 7.27

Set 5
Target: RING finger protein unkempt homolog, zinc fingers 1-6, GST-SBP tag (UNK, Homo sapiens, UniProt Q9C0B0, residues 30-357)
Sequence of UniProt Q9C0B0 (30-357, looked up): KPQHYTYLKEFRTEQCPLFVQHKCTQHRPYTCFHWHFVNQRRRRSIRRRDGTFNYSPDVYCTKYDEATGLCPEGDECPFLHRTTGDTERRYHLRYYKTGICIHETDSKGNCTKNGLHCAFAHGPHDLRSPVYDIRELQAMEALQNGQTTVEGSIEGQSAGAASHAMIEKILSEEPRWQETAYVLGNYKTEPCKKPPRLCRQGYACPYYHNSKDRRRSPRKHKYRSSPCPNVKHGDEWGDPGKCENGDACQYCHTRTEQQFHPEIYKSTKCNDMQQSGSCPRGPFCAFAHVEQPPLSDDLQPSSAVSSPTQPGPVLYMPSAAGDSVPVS
Technique: RNA Bind-n-Seq
Molecule type: RNA
Medium: in vitro
Tested at: not given
Notes: RNA with constant flanks, human-mouse chimeric sites, ends assumed
Baseline: input RNA pool
Direction: higher = stronger binding
Quantity: bound/input enrichment
All sequences stand within: GGGAGUUCUACAGUCCGACGAUC … CAACAGAGGAUUGAGCAUCA
UGUGCAUAUGAUGCUUGAGAUGGUUUUUGCAAAAGCAGAAAUCGCUGCAAGGUCAUUACAAUAGAUAAAAGUGGUAUUUUAAACCUUUGAAAUAAAUGGAUGUAACUGUACGUUGGUACA: 0.476 ratio
AAAGAACCUCUCUCUGAUGAAGAUGAGGAAGACAAUGAUGAUGUUGAACCCAUUUCUGAAUUUAGAUUUGUGCCCAGUGAUAAGUCAGCAUUGGAGGCAAUGUUCACAGCAAUGUGUGAG: 0.468 ratio
CCACCAGGAUCCCAGAAACAUGACCCUUGCUGCCUACAAAGAGAAGAUGAAGGAACUCCCGCUGGUGUCCUUGUUCUGCUCCUGCUUCCUGGCCGAUCCCCUGAAUAAGUCGUCCUACAA: 0.312 ratio
GUUCGACUCUGGGAUCAUGCCACAAUGACAGAAGUGAAAUCUCUGAAUUUUAAUAUGUCUGUUAGCAGCAUGGAGUAUAUUCCUGAGGGAGAGAUUUUGGUUAUUACUUAUGGACGAUCU: 0.365 ratio
CUGUGACCACAAGAUCCUGAAGUUUGAGCAGCUGAAGUUGACUCCCUCUCCUUGCCUGCCUAGUUUCCCACUGCCCCCCCAUCCCCCAGUGUCGGCUGAGAUGUUGCCUCUGCACGGUUC: 1.34 ratio
UCAGAAGAGGUGCUGGGUCACUUUUCAUAUCCAGAUCCUUCACAGUGGACAGAUGAAGAACUGGGAAUCCCUCCUGAUGACGAGGACUGACACUGUAAACUCUCUGGACGAGUAGGAGCA: 0.945 ratio
UCAUUUUGCUCGGGUUAGAUCGUCAGGUAGGAAAAGCCUAAAGAUUAGGUUGUAAGAAAAACAGAAGCCAUGUUUCGAAGACCUGUGUUACAGGUAUUUCGUCAGUUUGUAAGACAUGAG: 2.75 ratio
UCGGAUGCUGUGCUGGGUCACUUUCCGUAUCCAGAUCCUUCCCAGUGGACAGAUGAAGAACUGGGAAUCCCUCCUGAUGACGAGGACUGACACUGUAAACUCUCUGGACGAGUAGGAGCA: 0.569 ratio
CACAGAGGAGAUCUGCUGUUCCUCACGAAUUUCCGGGAGGACCCCAUCAGAGCUGGUGAAAUAGUUGUUUUUAAAGUUGAAGGAAGAGACAUUCCGAUAGUUCACAGAGUAAUCAAGGUU: 5.14 ratio
AAAGUGAUGACUAUGUUUGUCCAACGACAGGUAUUUUCUGAGAACAAAGAUGAGAUUGCGUUAGUCCUCUAUGGCACAGAUGGCACUGACAAUCCCCUUGCUGGCAAGGACCAGUAUCAG: 0.117 ratio
UUACCCGAGAACGAGGAUGAGCUGGAGAGCACCAACAGGCGCUACACCAAGAGGGACUGCAGCACUUUCCUCAGAACUAGUGAGACGGGCAUUGUGGACCAGGUCAUGGUAACUCUCAAC: 0.127 ratio

Repeated from above (set 3):
CGGGCAGA: 0.135
CACAGTAG: -0.0752
CAAGTTGA: -0.138
GAGTGATA: -0.0767
GTGTTACA: -0.0825
CGTCGGAG: 0.109
AGGATAAT: 0.0562
ACTCCGCA: -0.0949
CAGCGTCG: 0.083
TGCTGCAA: 0.188
CCATCAAA: 0.00757
